# Results of several laboratories.
# Every numbered part comes from another study and shows a few of its results, in no order.

# Set 1
# Target: Histone acetyltransferase KAT6A, winged helix 2, GST fusion (KAT6A, Homo sapiens, UniProt Q92794, residues 85-181)
# Method: protein binding microarray
# Molecule type: double-stranded DNA, one strand shown
# Matrix: in vitro
# Concentration: not given
# Setting: 8-mer, flanks averaged, mean of 2 arrays, mostly near background
# Relative to: not given
# Reading: higher = stronger binding
# Target sequence (chain): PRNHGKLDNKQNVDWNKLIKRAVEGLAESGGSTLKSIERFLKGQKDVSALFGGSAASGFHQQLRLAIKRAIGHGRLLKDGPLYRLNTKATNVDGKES
Strand,E-score
ACATCGAG,-0.0542
AGAATTCA,-0.0556
CTAAAATA,-0.0744
AGTTTAAT,0.0914
CCACGATC,0.0332
ATGTTGAC,-0.078
CCGGAATC,0.012

# Set 2
# Target: RNA binding protein fox-1 homolog 2, RRM domain, GST-SBP tag (RBFOX2, Homo sapiens, UniProt O43251-10, residues 100-194)
# Method: RNA Bind-n-Seq
# Molecule type: RNA
# Matrix: in vitro
# Concentration: 365 nM
# Setting: natural RNA segment, single round, ends assumed
# Relative to: no-protein control
# Reading: higher = stronger binding
# Shared flanks, not repeated: GGGAGUUCUACAGUCCGACGAUC … UGGAAUUCUCGGGUGCCAA
# Construct (chain): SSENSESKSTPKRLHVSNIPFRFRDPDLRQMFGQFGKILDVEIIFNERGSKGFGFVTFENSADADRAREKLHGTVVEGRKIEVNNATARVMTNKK
Strand,RBNS enrichment (R)
UGUGUGGGGCUGAAGCGGCUUCUUUCCGCUGAACUUUUAUUUCCAUUUCAGCCUCGUGGCUUCUCUUAUUCAGGUCCAAGGCCCCUUAAAAACAAAACAUAUUAUCGCAA,0.566
CCACAUACUUUUGGAAUCCACUGCAAAAUUUUCUACUGGCCAAGUUCAAGUGAGCAAGCCAUGCCCCCAGCUGCAGUCAGAGUUGAGACCGGCUCUGUGGCUCGUAGCUG,0.318
CCGGAUGACAGUGACGAGGAGAACUGGGGCACGUGGGGUGCGGCAGCGGGCUAGGGCCCAGGGCAGCUUGCCCGUGCUGCUGUGCAGUUCUUGCCUCCCUCACGGGGCGU,0.465
GUGAACAAUCUGGGUAAAAGGCUACCUUUAAUUCUAAGCUUCAUUUUUUUUUGGGGGGGGGUUACAUUUUAAUCAUAAAUUCUUUUUUGCAAAGCCCAGGUUCUUGUUCC,0.834
CGUGUAGUUGGUGUGAGUAUUCUGUGACACAAGUGACGACAGGCUCAGUGACUGCCUGUACCUGUGCAACCCUCGCUUGCUCCUUGGAGAACCUGACAGGACGCUGAAGA,0.393
UAUUAAUGUACAACUCACCACUUCAUGCCAUAGGAGGCUGAAGUUGACGUUGCCUUUUAAGCCUUUUACAUACACUGGUCAGUUCGGAAAAUUCUCAACAAUAAUGUUUG,0.462
CUUUUUGUAUAGAAAGCACUACCCUAAGCCAUGAGGAUCUCCAUGCUUUGCUAACCAAGAUAACUGUUUUCUCUUUGUAGAAGUUUUGUUUUUGAAAUGUGUAUUUCUAA,0.55

# Set 3
# Molecule: PhoQ, residues 284 288 289 292 302 303 AQGLTV
# Method: Sort-seq
# Refers to: YFP reporter
# Matrix: E. coli
# Setting: PhoQ-PhoP variant library
# Together with: 10 µM Mg2+
# Relative to: high Mg2+ state
# Reading: higher = stronger signaling
target,fold induction
"PhoP, residues 12 14 15 18 19 QYCSL (Escherichia coli, UniProt P23836)",1.33
"PhoP, residues 12 14 15 18 19 STHWV (Escherichia coli, UniProt P23836)",3.57
"PhoP, residues 12 14 15 18 19 SHWTV (Escherichia coli, UniProt P23836)",0.99

# Set 4
# Target: PABPC1L2, full length, GST fusion (mouse, UniProt A0ABA7IW68)
# Method: RNAcompete
# Molecule type: RNA
# Matrix: in vitro
# Concentration: 20 nM
# Setting: 7-mer, probes averaged, single round
# Relative to: mean of 7-mers
# Reading: higher = stronger binding
# Residues (chain): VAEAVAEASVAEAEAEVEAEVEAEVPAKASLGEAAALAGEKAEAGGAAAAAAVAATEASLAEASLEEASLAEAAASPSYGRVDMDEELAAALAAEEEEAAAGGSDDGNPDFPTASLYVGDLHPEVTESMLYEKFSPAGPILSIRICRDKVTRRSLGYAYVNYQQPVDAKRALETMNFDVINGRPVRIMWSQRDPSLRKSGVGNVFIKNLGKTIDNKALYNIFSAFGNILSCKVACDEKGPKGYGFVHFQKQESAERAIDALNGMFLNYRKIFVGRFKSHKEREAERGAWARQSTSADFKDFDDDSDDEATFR
Strand,7-mer Z-score
GCCUAUG,-0.193
AUAAACG,1.24
CGGUACA,-0.0246
UUUUAGG,-0.0373
GGUUAUG,-0.0192
GCUAUCU,-0.238

# Repeated from above (set 2):
Strand,RBNS enrichment (R)
CGUGUAGUUGGUGUGAGUAUUCUGUGACACAAGUGACGACAGGCUCAGUGACUGCCUGUACCUGUGCAACCCUCGCUUGCUCCUUGGAGAACCUGACAGGACGCUGAAGA,0.393
UAUUAAUGUACAACUCACCACUUCAUGCCAUAGGAGGCUGAAGUUGACGUUGCCUUUUAAGCCUUUUACAUACACUGGUCAGUUCGGAAAAUUCUCAACAAUAAUGUUUG,0.462
CUUUUUGUAUAGAAAGCACUACCCUAAGCCAUGAGGAUCUCCAUGCUUUGCUAACCAAGAUAACUGUUUUCUCUUUGUAGAAGUUUUGUUUUUGAAAUGUGUAUUUCUAA,0.55
